Published values from different studies.
Every numbered part comes from another study and shows a few of its results, in no order.

Series 1
Target: Ras GTPase-activating protein-binding protein 1, full length (G3BP1, Homo sapiens, UniProt Q13283)
UniProt Q13283, sequence (whole entry, looked up): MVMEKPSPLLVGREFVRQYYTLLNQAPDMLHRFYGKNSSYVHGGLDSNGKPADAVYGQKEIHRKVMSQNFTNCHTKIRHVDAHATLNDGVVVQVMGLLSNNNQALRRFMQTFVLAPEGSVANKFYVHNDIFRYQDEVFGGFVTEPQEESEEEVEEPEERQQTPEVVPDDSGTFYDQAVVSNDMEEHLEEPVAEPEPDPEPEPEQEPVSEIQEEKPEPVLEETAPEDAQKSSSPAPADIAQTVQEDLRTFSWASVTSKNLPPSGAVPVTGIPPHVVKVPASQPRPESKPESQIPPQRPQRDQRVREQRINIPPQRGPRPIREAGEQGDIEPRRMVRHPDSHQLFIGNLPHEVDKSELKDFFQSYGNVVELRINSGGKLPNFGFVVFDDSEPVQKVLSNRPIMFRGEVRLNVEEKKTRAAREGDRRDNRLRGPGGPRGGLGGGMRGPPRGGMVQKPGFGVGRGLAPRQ
Method: RNA Bind-n-Seq
Form: RNA
Matrix: in vitro
Concentration: 200 nM
Notes: whole 134-nt RNA, ends assumed
With: 150 mM KCl
Relative to: input library
Direction: higher = stronger binding
Shared flanks, not repeated: GGGAGUUCUACAGUCCGACGAUC … UGGAAUUCUCGGGUGUCAAGG
Oligonucleotide | log2 enrichment
UGUCUGGUGACAAGGAAGAGGAUGCUCCUCAUAGAGAAGAUUACUUUGAGCCCAUUUCUCCUGAUCGGAAUUCUGUUCCCCAGGAAGGGC | -2.03
CCUGUGCUACACAUCGUAUGUACCGAAUCGGGGUUUGGGGAAAAAGGGGUUUUUUUGGGGAAAGUAUUAUGUUACGCCGUUCGGAUCUGC | 0.107
UGCUAGGCAAUGGAUCACUUGGAGUCCUUUAUUGCUGAAUGUGAUCGGAGAACUGAGCUCGCCAAGAAGCGGCUGGCAGAAACACAGGAG | 0.508
CACAGACAACACGCACCCACACAGACACAGAGGGAAGGGGUUGGGAUGGGGACAGGGUGCACAGCAGGGCGGGGUAGGACCCCAGCCUCU | 1.79
CAAGUCCUGUGCUACACAUCGUAUGUACCGAAUCGGGGAAAGGGGUGGGGUGGGGAAAGUAUUAUGUUACGCCGUUCGGAUCUGCACUUC | 1.34
UCCUCAAGUCCUGUGCUACACAUCGUAUGUACCGAAUCGGCGGGCGGGCGGGAAAGUAUUAUGUUACGCCGUUCGGAUCUGCACUUCCAG | 1.18
UCAAGUCCUGUGCUACACAUCGUAUGUACCGAAUCGGUUUGGAAAGGUUUUUGGAAAGUAUUAUGUUACGCCGUUCGGAUCUGCACUUCC | -0.781
CAAGUCCUGUGCUACACAUCGUAUGUACCGAAUCGGGGAGGGGUUUGGGGAGGGGAAAGUAUUAUGUUACGCCGUUCGGAUCUGCACUUC | 1.5
GCAGGAAGUAAAAACAAAUGGAAAUGCUUCGGAUAGUGGCAGGGGUGGGGGUUGCUAAGGAAAGGGUGCGAUGGGAGUGGGUAAAGAGUU | 0.831
UCCAAACCCAAGAAAAAGAAAUCUUUUUCCAAGGAGGAGUUGAUGAGUAGCGAUCUUGAAGAGACCGCUGGCAGCACCAGUAUUCCCAAG | -0.715
UCAAGUCCUGUGCUACACAUCGUAUGUACCGAAUCGGUGGAAAAAGGUUUUUGGAAAGUAUUAUGUUACGCCGUUCGGAUCUGCACUUCC | -0.913
CCUGUGCUACACAUCGUAUGUACCGAAUCGGGUUUUUUUGGGGUUUUUUUGGUUUUUUUGGAAAGUAUUAUGUUACGCCGUUCGGAUCUG | -0.711
GUCCUGUGCUACACAUCGUAUGUACCGAAUCGGGGCCCCCGGCCCCCGGCCCCCGGGGAAAGUAUUAUGUUACGCCGUUCGGAUCUGCAC | -0.437
CCUGUGCUACACAUCGUAUGUACCGAAUCGGGCCCCCCGGGGCCCCCCGGGCCCCCCGGGAAAGUAUUAUGUUACGCCGUUCGGAUCUGC | -0.7

Series 2
Target: Sal-like protein 4, full length isoform A (SALL4, Homo sapiens, UniProt Q9UJQ4, residues 1-1053)
UniProt Q9UJQ4, sequence (whole entry, looked up): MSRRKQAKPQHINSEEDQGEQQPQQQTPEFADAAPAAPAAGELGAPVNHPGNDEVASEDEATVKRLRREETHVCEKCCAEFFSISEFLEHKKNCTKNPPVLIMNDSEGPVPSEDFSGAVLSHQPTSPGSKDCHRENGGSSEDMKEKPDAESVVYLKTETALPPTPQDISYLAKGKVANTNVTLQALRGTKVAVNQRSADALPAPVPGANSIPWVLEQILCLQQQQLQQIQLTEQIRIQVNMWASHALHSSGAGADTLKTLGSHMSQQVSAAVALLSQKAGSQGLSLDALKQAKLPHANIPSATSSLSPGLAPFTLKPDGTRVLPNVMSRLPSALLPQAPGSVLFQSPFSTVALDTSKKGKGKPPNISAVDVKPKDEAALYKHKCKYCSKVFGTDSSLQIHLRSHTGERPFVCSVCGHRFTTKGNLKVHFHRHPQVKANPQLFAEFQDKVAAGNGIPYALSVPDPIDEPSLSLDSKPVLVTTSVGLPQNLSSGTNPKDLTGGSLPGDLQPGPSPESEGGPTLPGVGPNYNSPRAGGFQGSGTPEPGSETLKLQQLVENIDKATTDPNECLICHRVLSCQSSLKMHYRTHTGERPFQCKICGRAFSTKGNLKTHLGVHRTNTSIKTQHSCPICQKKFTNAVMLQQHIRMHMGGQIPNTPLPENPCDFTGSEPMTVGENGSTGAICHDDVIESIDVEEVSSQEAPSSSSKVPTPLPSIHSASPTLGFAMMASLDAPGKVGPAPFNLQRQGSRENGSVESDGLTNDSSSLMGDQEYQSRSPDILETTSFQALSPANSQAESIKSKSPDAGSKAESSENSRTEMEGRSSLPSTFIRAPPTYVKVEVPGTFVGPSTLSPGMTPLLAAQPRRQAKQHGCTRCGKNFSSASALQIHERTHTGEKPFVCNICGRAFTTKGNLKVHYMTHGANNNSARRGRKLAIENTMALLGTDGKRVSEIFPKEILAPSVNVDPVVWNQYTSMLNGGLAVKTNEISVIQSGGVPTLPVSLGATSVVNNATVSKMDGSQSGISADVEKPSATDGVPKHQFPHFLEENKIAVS
Method: universal PBM
Form: double-stranded DNA, one strand shown
Matrix: in vitro
Concentration: 600 nM
Notes: 8-mer, flanks averaged, mean of replicates
Direction: higher = stronger binding
Oligonucleotide | E-score
CTGGTGTC | -0.206
ACGTTGGC | -0.0541
CATAAAGA | 0.303
GTGACAGA | -0.056
ACAAACGG | -0.0173
GGGAGAAA | 0.00302
AGGGGCAG | -0.235
AAGATGTG | 0.144
GACACTCA | -0.109
AGTGACTA | 0.0541
CTTATGAC | 0.251
AGTACGGG | -0.11
CGCAGACA | -0.131
CAACGACA | 0.0156
ATCTAAGA | 0.143
AGATCAAT | 0.126
CAGTTCGG | -0.197
CGCTACAC | -0.127
CTGAGAAC | -0.0369
CTCTCAGA | -0.0597
ACGGCGCA | -0.271
CAGGTGAA | 0.0716
CATAGGGA | 0.112
AGGTAACG | -0.0645
GAGCCGCC | -0.331

Series 3
Target: RNA binding protein fox-1 homolog 2, RRM domain, GST-SBP tag (RBFOX2, Homo sapiens, UniProt O43251-10, residues 100-194)
Method: RNA Bind-n-Seq
Form: RNA
Matrix: in vitro
Concentration: 365 nM
Notes: natural RNA segment, single round, ends assumed
Relative to: no-protein control
Direction: higher = stronger binding
Shared flanks, not repeated: GGGAGUUCUACAGUCCGACGAUC … UGGAAUUCUCGGGUGCCAA
Construct (chain): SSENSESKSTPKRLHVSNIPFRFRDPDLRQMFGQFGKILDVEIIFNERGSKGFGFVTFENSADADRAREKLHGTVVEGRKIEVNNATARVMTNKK
Oligonucleotide | RBNS enrichment (R)
CAUAGACCUUUGGGUCUGCCUGGACUGUAUGUGGAUGUGUGCGUGUGUUGUGACACGGGACAACACAUGCCUCUGCAAGUGUGUGUGCCGUGGAUAGCCCCUUGGCUGCU | 2.51
GUAAGAGCAGAGCACCUCCCACUGGGGGUGGGGUAUUUAAAAAUUAACUCAUUAGUAUCAUAAACGUCAAGGAUUGAUUGGACCAGGCAAGAGCCAUGUUUUUGAGAAGG | 0.695
AUCGCCACAGUCUCUGGGGCUCCAGGGCUGCGCUGUAACUGAGCUUCAUCCAGAAUGAGCAAAACACUGUCCAGUCUUUGUUACGAUUUUGUAAUAAAUGUGUACAUUUU | 0.215
AGUCUCUGUACUUGGCUACACAGAUUGUAUUUUUAUUGUUAAUGCUCUCUUCUUAUGGAUACCUGCAUUUAACUUGUGGACUAUGUAAACACAAUAUAUAUCAAUAUCUA | 0.436
AAAUUGACUAGAUAUCUGAGACAACAUGGAACUUCGGAUCAGUUUCUCUUUCAUGAGGGUGGAACUUGCACAGAAAAGAAGAAUAAUCGCAAGAAGAGAUUUGGGCUUAA | 1.21
UUUUAAAGGGGGGAAAUAACAUCCAAGUCUGAUUAGAACCGCCCAUCAGUUGUUCUUGGAAGUUUUUAGAAGACCUCACGGACUUUGCAGUUUAUUUUUCUUGGCCAACA | 1.05
UUUAAUAUAUGACAGUUAUUUGAGAAGCCAUUUCUACUUUGAAGUCAUUAUCGAUGAAAGUGAUGUAUCUUCACCUACCAUUUUCCUAAUAAAGUUCUGUAUUCAAAUAU | 0.474
AGUGAGCACUAGGACAGCUGGGGGCUGCGUCAGGCUACUGGCUUCCUGUGUUCUCACCACUGUCCCUCUAGCCCUGACUGCAAGUAUGCAGUGCUGGAUGACGGGCAGUG | 0.642
GCUAUAAAAUGGUGAAAGCUUCCUUCUAAACUGCCCCAAGUGUUGAAGUCUUCACUUUAUUUUGUUGUUUUGUUUUGUUUUUCUGUUUUGUUUGCAAAAUGGUAAGGGGG | 1.04
AAUGUUUAGCUCUCACAAAGAGAGAUAACCUUGGAUACAUCUUCAUCUUCUAGCUAUAUAAAGAAACAAUCCAGCUGCUUAGAAGCUGUGACUAAUACAGAGUUGACUUU | 0.288
AUUCUGUAGCUUUAACUUGUAAACCACAUCUUUUUUGCACUUUUUUUAUAAGCAAAAACGUGCCGUUUAAACCACUGGAUCUAUCUAAAUGCCGAUUUGAGUUCGCGACA | 0.374
GCACAAAUACGUCUGUGUGGGACAGUCCACUGAACGUCGUCAUUUAGUCCAGCCCAUUGCAGGCAUUCCUGGAACAGGUGAGAGGGUUUCUACUUCCCAUGAAGUAUAUA | 1.45

Series 4
Target: Interferon regulatory factor 5, full length, phosphomimetic (IRF5, Homo sapiens, UniProt Q13568-2, residues 1-514, K96S/S451D/S453D/S456D/S462D)
Method: protein-binding microarray
Form: double-stranded DNA, one strand shown
Matrix: in vitro
Concentration: 250 nM
Notes: 60-bp whole probe
With: salmon DNA 0.4 mg/ml
Relative to: random background probes
Direction: higher = stronger binding
Shared flanks, not repeated: GCCTAGCAC … GTCTTGATTCGCTTGACGCTGCTG
Oligonucleotide | log fluorescence [z-score]
TTAGAACTGGGGGATCGATTAGTGCTA | 0.59
TTTGATTTCAGTATCGATTAGTGCTAG | 9.14
TTAGATTTCACTTTCGATTAGTGCTAG | 10.9
GCACATGAGCCAAGCCTGCCGTGCTAG | -0.695
TTAGATTTCGCGACTGGATTAGTGCTA | 0.658
GATGATTTCAGTTTCGAGACGTGCTAG | 7.27
GACGAACTGGGGACTGGAGATGTGCTA | -0.417
TCACATTTCCTTTACATACTGTGCTAG | 0.88
TTAGATATCAGTTTCGATAAGTGCTAG | 9.78
TTAGGTTTCCTGCTCCTTTAGTGCTAG | 0.252
CTTCTCCTCTAGGTTCTCTGAGTGCTA | 0.229
CCATCTCTGCTCCTTCTGACAGTGCTA | 0.0244
GACGAACTGGGATTTCGAGACGTGCTA | 0.0187
GACGGTTTCTGTCTCGGGACGTGCTAG | 2.93
GACGGTACCGACACTGGGGACGTGCTA | -0.286
TCAGATTTCGATTACAAACTGTGCTAG | 6.25
GACCGACTGGGTTTCGGGACGTGCTAG | 2.92
TCAATTCTGAAAATGGAACTGTGCTAG | 0.557
TCAACTCTCTGGGCTGTGACTGTGCTA | 0.00691
TTAGACTCCAGTTTCGATTAGTGCTAG | 9.64
TTAGGTTTCGGGACGGGGTTAGTGCTA | 6.06
GACGAGATCGGGACTGGAGACGTGCTA | -0.266
GACGGTCCCGGTTTCGGGACGTGCTAG | 2.95
AATCATTTTCGTTTTTATTAGTGCTAG | 7.68
GACAGACTGGGGTTTCGGGACGTGCTA | 1.44

Series 5
Target: Histone acetyltransferase KAT6A, both winged helices, GST fusion (KAT6A, Homo sapiens, UniProt Q92794, residues 1-181)
Method: protein binding microarray
Form: double-stranded DNA, one strand shown
Matrix: in vitro
Concentration: not given
Notes: 8-mer, flanks averaged, mean of 2 arrays, mostly near background
Relative to: not given
Direction: higher = stronger binding
Residues (chain): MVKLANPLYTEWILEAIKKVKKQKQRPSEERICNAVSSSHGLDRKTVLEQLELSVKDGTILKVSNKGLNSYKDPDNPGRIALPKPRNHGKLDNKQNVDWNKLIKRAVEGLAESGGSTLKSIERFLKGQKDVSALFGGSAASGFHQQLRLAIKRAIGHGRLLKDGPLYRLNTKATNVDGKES
Oligonucleotide | E-score
CCGAGGCG | 0.218
ATAACGGA | 0.0924
AGCTTTAC | -0.144
CGAGTCGC | 0.101
AGACGGTA | 0.132
AAATTTCA | -0.265
GGACAGTA | 0.0323
ACCCCACT | -0.223
TCGTGAAA | 0.0309
CTACGAAC | -0.0692
ATCCACGA | -0.0945
AAGTTGGG | -0.282
TATCACAA | -0.164
ACATGCCC | -0.0545
AGGACGAC | -0.0685
CTGTCAGA | -0.0146

Repeated from above (series 2):
Oligonucleotide | E-score
GACACTCA | -0.109
GTGACAGA | -0.056
GGGAGAAA | 0.00302
AAGATGTG | 0.144
ACGGCGCA | -0.271
CAGGTGAA | 0.0716
CGCAGACA | -0.131
ACAAACGG | -0.0173
CTTATGAC | 0.251
CAACGACA | 0.0156
ACGTTGGC | -0.0541
GAGCCGCC | -0.331
CGCTACAC | -0.127
CAGTTCGG | -0.197
AGGGGCAG | -0.235
